{"data": "Experimental data pooled from the literature", "GLP1R": "Glucagon-like peptide 1 receptor (GLP1R, Homo sapiens, UniProt P43220)", "note": "Several values in a cell are separate wells, animals, samples, runs or records. Numbers after ± are the reported error.", "sequence of UniProt Q16774 (whole entry, unmodified, looked up)": "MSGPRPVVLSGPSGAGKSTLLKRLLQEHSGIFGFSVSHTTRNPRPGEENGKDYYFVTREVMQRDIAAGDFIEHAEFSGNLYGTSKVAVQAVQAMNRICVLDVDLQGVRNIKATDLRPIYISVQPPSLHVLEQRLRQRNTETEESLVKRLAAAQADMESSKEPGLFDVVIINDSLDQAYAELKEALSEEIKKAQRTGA", "sequence of UniProt P07195 (whole entry, looked up)": "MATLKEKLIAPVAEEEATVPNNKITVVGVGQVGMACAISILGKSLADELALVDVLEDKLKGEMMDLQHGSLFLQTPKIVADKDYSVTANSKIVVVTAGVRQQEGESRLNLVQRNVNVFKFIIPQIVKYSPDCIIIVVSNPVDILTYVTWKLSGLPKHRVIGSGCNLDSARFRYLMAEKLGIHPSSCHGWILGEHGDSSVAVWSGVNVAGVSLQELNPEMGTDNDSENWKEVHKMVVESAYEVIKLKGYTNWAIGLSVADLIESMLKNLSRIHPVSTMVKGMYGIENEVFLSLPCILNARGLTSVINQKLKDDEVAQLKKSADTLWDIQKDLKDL", "sequence of UniProt P50620 (whole entry, looked up)": "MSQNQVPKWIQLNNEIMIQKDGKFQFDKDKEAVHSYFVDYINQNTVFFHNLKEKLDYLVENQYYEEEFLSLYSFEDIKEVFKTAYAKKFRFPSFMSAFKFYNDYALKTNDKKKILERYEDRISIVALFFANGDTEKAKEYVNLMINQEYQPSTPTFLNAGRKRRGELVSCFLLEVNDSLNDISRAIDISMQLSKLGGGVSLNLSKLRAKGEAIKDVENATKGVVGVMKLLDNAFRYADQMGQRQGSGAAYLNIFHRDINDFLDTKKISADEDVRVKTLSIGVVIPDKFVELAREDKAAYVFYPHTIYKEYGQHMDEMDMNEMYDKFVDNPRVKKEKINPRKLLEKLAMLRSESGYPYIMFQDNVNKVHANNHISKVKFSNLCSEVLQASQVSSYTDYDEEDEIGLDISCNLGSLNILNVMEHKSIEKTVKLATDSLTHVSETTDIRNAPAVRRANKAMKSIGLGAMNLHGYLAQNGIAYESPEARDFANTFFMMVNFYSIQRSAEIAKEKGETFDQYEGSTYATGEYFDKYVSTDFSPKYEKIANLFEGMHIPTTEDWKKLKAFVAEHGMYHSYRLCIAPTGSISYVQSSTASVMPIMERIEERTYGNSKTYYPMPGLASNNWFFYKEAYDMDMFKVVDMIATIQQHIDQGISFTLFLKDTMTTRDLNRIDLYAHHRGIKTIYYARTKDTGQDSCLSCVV", "sequence of UniProt Q5AHK2 (whole entry, looked up)": "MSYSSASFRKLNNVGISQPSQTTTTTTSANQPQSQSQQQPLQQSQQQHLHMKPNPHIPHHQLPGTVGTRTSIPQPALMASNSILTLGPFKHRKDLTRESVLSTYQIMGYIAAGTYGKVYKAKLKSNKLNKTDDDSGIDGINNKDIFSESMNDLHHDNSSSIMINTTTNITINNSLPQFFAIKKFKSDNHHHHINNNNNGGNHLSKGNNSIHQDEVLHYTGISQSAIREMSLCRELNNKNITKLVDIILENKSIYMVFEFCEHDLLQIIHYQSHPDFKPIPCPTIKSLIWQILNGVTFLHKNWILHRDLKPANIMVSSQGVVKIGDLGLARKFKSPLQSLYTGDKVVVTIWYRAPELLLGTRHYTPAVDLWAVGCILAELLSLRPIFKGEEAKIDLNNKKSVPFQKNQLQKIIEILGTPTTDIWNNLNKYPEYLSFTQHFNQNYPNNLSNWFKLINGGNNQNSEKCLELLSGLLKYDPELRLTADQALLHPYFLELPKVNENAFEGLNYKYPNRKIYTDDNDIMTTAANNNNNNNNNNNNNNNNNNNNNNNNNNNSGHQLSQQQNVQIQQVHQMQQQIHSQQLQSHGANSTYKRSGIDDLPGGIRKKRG", "sequence of UniProt Q8IUI8 (whole entry, looked up)": "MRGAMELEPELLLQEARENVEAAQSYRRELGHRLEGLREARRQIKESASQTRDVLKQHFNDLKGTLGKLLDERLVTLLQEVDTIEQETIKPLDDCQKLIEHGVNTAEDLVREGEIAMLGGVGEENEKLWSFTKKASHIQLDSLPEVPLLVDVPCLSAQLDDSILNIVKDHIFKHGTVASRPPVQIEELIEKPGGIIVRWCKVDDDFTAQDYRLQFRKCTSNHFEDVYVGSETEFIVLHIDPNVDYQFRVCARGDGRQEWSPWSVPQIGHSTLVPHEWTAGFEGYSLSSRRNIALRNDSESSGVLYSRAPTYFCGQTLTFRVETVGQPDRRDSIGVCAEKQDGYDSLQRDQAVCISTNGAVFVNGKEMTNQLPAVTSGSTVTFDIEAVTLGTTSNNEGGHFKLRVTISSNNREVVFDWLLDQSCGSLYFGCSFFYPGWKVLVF", "sequence of UniProt P34995 (whole entry, unmodified, looked up)": "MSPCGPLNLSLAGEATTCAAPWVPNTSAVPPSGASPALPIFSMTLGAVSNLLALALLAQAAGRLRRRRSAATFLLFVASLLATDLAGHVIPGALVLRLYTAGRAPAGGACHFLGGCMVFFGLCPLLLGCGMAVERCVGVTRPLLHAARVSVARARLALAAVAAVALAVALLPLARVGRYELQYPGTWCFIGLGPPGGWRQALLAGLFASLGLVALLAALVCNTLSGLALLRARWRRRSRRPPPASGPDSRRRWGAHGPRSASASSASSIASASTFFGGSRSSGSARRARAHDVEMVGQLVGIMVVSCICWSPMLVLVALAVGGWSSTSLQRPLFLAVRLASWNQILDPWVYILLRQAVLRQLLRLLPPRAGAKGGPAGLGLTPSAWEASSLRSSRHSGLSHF"}
{"SMILES": "CC[C@H](C)[C@H](NC(=O)[C@H](Cc1ccccc1)NC(=O)[C@H](CCC(=O)O)NC(=O)[C@H](CCCNC(=N)N)NC(=O)[C@H](C)NC(=O)[C@H](C)NC(=O)[C@H](CCC(N)=O)NC(=O)[C@H](CCC(=O)O)NC(=O)[C@H](CCC(=O)O)NC(=O)[C@H](CC(C)C)NC(=O)[C@H](Cc1ccc(O)cc1)NC(=O)[C@H](CO)NC(=O)[C@H](CO)NC(=O)[C@H](CCCCNc1c(NCCCCCN(O)C(=O)CCC(=O)NCCCCCN(O)C(=O)CCC(=O)NCCCCCN(O)C(C)=O)c(=O)c1=O)NC(=O)[C@H](CC(=O)O)NC(=O)[C@H](CO)NC(=O)[C@@H](NC(=O)[C@H](Cc1ccccc1)NC(=O)[C@@H](NC(=O)CNC(=O)[C@H](CCC(=O)O)NC(=O)[C@H](C)NC(=O)CCc1cnc[nH]1)[C@@H](C)O)[C@@H](C)O)C(=O)N[C@@H](C)C(=O)N[C@@H](Cc1c[nH]c2ccccc12)C(=O)N[C@@H](CC(C)C)C(=O)N[C@H](C(=O)N[C@@H](CCCNC(=N)N)C(=O)NCC(=O)N[C@@H](CCCNC(=N)N)C(=O)N[C@@H](CCCCNC(=O)COCCOCCNC(=O)COCCOCCNC(=O)CC[C@H](NC(=O)CCCCCCCCCCCCCCCCC(=O)O)C(=O)O)C(=O)NCC(=O)NCC(=O)N[C@@H](CO)C(=O)N[C@@H](CCCCNc1c(NCCCCCN(O)C(=O)CCC(=O)NCCCCCN(O)C(=O)CCC(=O)NCCCCCN(O)C(C)=O)c(=O)c1=O)C(=O)O)C(C)C", "target": "GLP1R", "test": "agonist, CRE luciferase reporter", "system": "BHK cells", "setting": "Zr-loaded DFO conjugate, with: 1% HSA", "how to read": "reference: parent peptide", "endpoint": "fold potency loss", "value": 6.4}
{"SMILES": "C=CCNC1=C2C[C@@H](C)C[C@H](OC)[C@H](O)[C@@H](C)/C=C(\\C)[C@H](OC(N)=O)[C@@H](OC)/C=C\\C=C(/C)C(=O)NC(=CC1=O)C2=O", "target": "NanoBiT HiBiT/LgBiT luciferase", "test": "inhibitor, HiBiT luminescence counterscreen", "system": "conditioned medium only", "setting": "1.66 µM, 24 h", "how to read": "reference: vehicle", "endpoint": "luminescence signal reduction", "value": "-0.3%"}
{"SMILES": "Cc1ncsc1-c1ccc(CNC(=O)[C@@H]2C[C@@H](O)CN2C(=O)[C@@H](NC(=O)CCCCCCCCCCCC(=O)NCCCCC#Cc2cccc(-c3nn(-c4nc(C(=O)O)cs4)c(CC4CC4)c3Cc3ccc(S(N)(=O)=O)cc3)c2)C(C)(C)C)cc1", "target": "LDHB (Homo sapiens, UniProt P07195)", "test": "degrader, western blot", "system": "PANC-1", "setting": "48 h", "endpoint": "Dmax", "value": "86 ± 7.7%"}
{"SMILES": "Cc1cn([C@H]2C[C@H](O)[C@@H](COP(=O)(O)OP(=O)(O)OP(=O)(O)O)O2)c(=O)[nH]c1=O", "target": "nrdE, with NrdF (Bacillus subtilis, UniProt P50620)", "test": "GDP reduction, allosteric activator", "setting": "37 °C, with: Mn(III)2-Y• NrdF", "endpoint": "apparent Km", "value": "1.2 ± 0.1 µM"}
{"SMILES": "Nc1ncnc2c1ncn2[C@@H]1O[C@H](COP(=O)(O)OP(=O)(O)O)[C@@H](O)[C@H]1O", "target": "GUK1 (Homo sapiens, UniProt Q16774)", "test": "ITC", "setting": "concentration not given, with: ATPγS", "endpoint": "ΔH of binding", "value": "-4.53 kcal/mol and -4.65 kcal/mol and -3.23 kcal/mol"}
{"SMILES": "Oc1ccccc1-c1n[nH]cc1-c1ccnc2ccccc12", "target": "Serine/threonine-protein kinase SSN3 (SSN3, Candida albicans, UniProt Q5AHK2)", "test": "kinase binding, MIB/MS competition", "system": "Candida albicans lysate", "setting": "1 µM", "how to read": "reference: DMSO, negative = stronger binding", "endpoint": "log2 fold change", "value": -0.07}
{"SMILES": "O=c1cc(-c2ccc([N+](=O)[O-])cc2)[nH]c2c(-c3ccc(Cl)cc3)c(Cc3ccccc3)nn12", "target": "Cytokine receptor-like factor 3 (CRLF3, Homo sapiens, UniProt Q8IUI8)", "test": "thermal stability, binder, thermal proteome profiling", "system": "RD, cell lysate", "setting": "50 µM, 0.5% DMSO", "how to read": "reference: DMSO vehicle", "endpoint": "melting temperature shift", "value": "6.6 °C"}
{"SMILES": "CC[C@H](C)[C@H](NC(=O)[C@H](Cc1ccccc1)NC(=O)[C@H](CCC(=O)O)NC(=O)[C@H](CCCNC(=N)N)NC(=O)[C@H](C)NC(=O)[C@H](C)NC(=O)[C@H](CCC(N)=O)NC(=O)[C@H](CCCCNc1c(NCCCCCN(O)C(=O)CCC(=O)NCCCCCN(O)C(=O)CCC(=O)NCCCCCN(O)C(C)=O)c(=O)c1=O)NC(=O)[C@H](CCC(=O)O)NC(=O)[C@H](CC(C)C)NC(=O)[C@H](Cc1ccc(O)cc1)NC(=O)[C@H](CO)NC(=O)[C@H](CO)NC(=O)[C@H](CCCCNc1c(NCCCCCN(O)C(=O)CCC(=O)NCCCCCN(O)C(=O)CCC(=O)NCCCCCN(O)C(C)=O)c(=O)c1=O)NC(=O)[C@H](CC(=O)O)NC(=O)[C@H](CO)NC(=O)[C@@H](NC(=O)[C@H](Cc1ccccc1)NC(=O)[C@@H](NC(=O)CNC(=O)[C@H](CCC(=O)O)NC(=O)[C@H](C)NC(=O)CCc1cnc[nH]1)[C@@H](C)O)[C@@H](C)O)C(=O)N[C@@H](C)C(=O)N[C@@H](Cc1c[nH]c2ccccc12)C(=O)N[C@@H](CC(C)C)C(=O)N[C@H](C(=O)N[C@@H](CCCNC(=N)N)C(=O)NCC(=O)N[C@@H](CCCNC(=N)N)C(=O)N[C@@H](CCCCNC(=O)COCCOCCNC(=O)COCCOCCNC(=O)CC[C@H](NC(=O)CCCCCCCCCCCCCCCCC(=O)O)C(=O)O)C(=O)O)C(C)C", "target": "GLP1R", "test": "agonist, CRE luciferase reporter", "system": "BHK cells", "setting": "metal-free DFO conjugate, with: 0% HSA", "how to read": "reference: parent peptide", "endpoint": "fold potency loss", "value": 39.5}
{"SMILES": "CCCCC[C@H](O)/C=C/[C@H]1[C@H](O)CC(=O)[C@@H]1C/C=C\\CCCC(=O)O", "target": "PTGER1 (Homo sapiens, UniProt P34995, F334L/G92T)", "test": "IP1 accumulation, agonist", "system": "AD293", "setting": "1 h", "how to read": "reference: wild type receptor", "endpoint": "Emax", "value": "104 ± 4.43%"}
{"SMILES": "C=C1CN(S(=O)(=O)c2ccc(C)cc2)CCCN(Cc2ccccc2)CCCN(S(=O)(=O)c2ccc(C)cc2)C1", "target": "CD4 signal peptide FLuc", "system": "HEK293 reporter-transfected", "setting": "concentration not given, 2 h, unit not given, with: cycloheximide", "how to read": "reference: mock", "endpoint": "FLuc activity", "value": 1}
{"note": "A few entries again:"}
{"SMILES": "O=c1cc(-c2ccc([N+](=O)[O-])cc2)[nH]c2c(-c3ccc(Cl)cc3)c(Cc3ccccc3)nn12", "target": "Cytokine receptor-like factor 3 (CRLF3, Homo sapiens, UniProt Q8IUI8)", "test": "thermal stability, binder, thermal proteome profiling", "system": "RD, cell lysate", "setting": "50 µM, 0.5% DMSO", "how to read": "reference: DMSO vehicle", "endpoint": "melting temperature shift", "value": "6.6 °C"}
